Measured values pooled from the literature.
Protocols differ between the studies behind these lines. ± marks the error that the study gave.
Organism: Trypanosoma brucei brucei

SMILES | assay | system | setting | scale | endpoint | value
Nc1ncnc2c1ccn2[C@H]1C[C@H](O)[C@@H](CO)O1 | parasite growth, resazurin | Squib 427 | 72 h | – | EC50 | 48 ± 1 µM
CC(=O)OC[C@H]1O[C@@H]([Se]C(=O)c2ccc([N+](=O)[O-])cc2)[C@H](OC(C)=O)[C@@H](OC(C)=O)[C@@H]1OC(C)=O | flow cytometry | bloodstream form, hGrx1-roGFP2 | EC50, 1 h | reference: diamide 500 µM maximum and minimum oxidation | biosensor oxidation | 72%
Cc1ccc2c(c1)nc(NC(=O)c1cccc(C(F)(F)F)c1)n2[C@H]1CC[C@H](N)CC1 | cell growth, CellTiter-Glo | Lister 427 bloodstream form | 48 h | – | EC50 | 0.29 µM
CC(=O)N[C@@H]1[C@@H](OC(C)=O)[C@H](OC(C)=O)[C@@H](COC(C)=O)O[C@H]1[Se]Sc1ccccc1 | – | bloodstream form | 5 µM, 24 h, 1 % DMSO | – | viability | ≤ 50%
Nc1ncnc2c1c(C(F)(F)F)cn2[C@@H]1O[C@H](CO)[C@@H](O)[C@H]1O | parasite growth, resazurin | Squib 427 | 72 h | – | EC50 | 0.69 ± 0.11 µM
CC(=O)N[C@@H]1[C@@H](OC(C)=O)[C@H](OC(C)=O)[C@@H](COC(C)=O)O[C@H]1[Se]Cc1ccc(C#N)cc1 | – | bloodstream form | 5 µM, 24 h, 1 % DMSO | – | viability | 93.8 ± 21.5%
O=[N+]([O-])c1ccc(/C=N/N=C/c2ccc(F)cc2)s1 | parasite growth, CellTiter-Glo | GUTat3.1 bloodstream form | 72 h | – | IC50 | 0.46 ± 0.2 µM
COc1ccc(C[Se][C@@H]2O[C@H](COC(C)=O)[C@@H](OC(C)=O)[C@H](OC(C)=O)[C@H]2OC(C)=O)cc1 | – | bloodstream form | 5 µM, 24 h, 1 % DMSO | – | viability | 93.1 ± 9.3%
O=C(Nc1ccc2c(c1)CN(c1ccc(F)c(F)c1)C2=O)N1CCN(c2ccc(F)cc2)CC1 | cell growth, resazurin | Squib 427 | 3 days | – | IC50 | > 64 µM
O=[N+]([O-])c1ccc(/C=N/N=C/c2ccc(O)cc2)s1 | parasite growth, CellTiter-Glo | GUTat3.1 bloodstream form | 72 h | – | IC50 | 0.33 ± 0.12 µM
Cc1ncnc2c1c(C1=CCSCC1)cn2[C@@H]1O[C@H](CO)[C@@H](O)[C@H]1O | resazurin | Squib 427 | axenic HMI-9 medium | – | EC50 | > 64 µM
Cc1ccc(N2Cc3cc(NC(=O)N4CCN(c5cccc(C(F)(F)F)c5)CC4)ccc3C2=O)cc1 | cell growth, resazurin | Squib 427 | 3 days | – | IC50 | 2.4 µM
COc1cccc(Nc2c(C(N)=O)cnc3c(C)cc(-c4ccc5cnn(C)c5c4)cc23)c1 | cell growth, Alamar blue | bloodstream form, strain 427 | 48 h | – | EC50 | 6.8 ± 0.82 µM
O=C(Nc1ccc2c(c1)CN(c1ccc(Br)cc1)C2=O)N1CCN(c2ccc(F)cc2)CC1 | parasite growth, resazurin | Squib 427 | 3 d | – | IC50 | 0.4 µM
O=[N+]([O-])c1ccc(/C=N/N=C/c2ccc(Cl)cc2)o1 | parasite growth, CellTiter-Glo | GUTat3.1 bloodstream form | 72 h | – | IC50 | 1.02 ± 0.43 µM
CCOC(=O)C(C)NC(=O)CN1C(=O)S/C(=C\c2ccc(F)cc2)C1=O (centres unmarked) | cell viability | GUTat3.1 | 72 h | – | IC50 | > 64 µM
COC(=O)c1cccc(-c2cc(C)c3ncc(C(N)=O)c(Nc4cccc(OC)c4)c3c2)c1 | cell growth, Alamar blue | bloodstream form, strain 427 | 48 h | – | EC50 | 7 ± 3.9 µM
O=[N+]([O-])c1ccc(/C=N/N=C/c2ccccc2)o1 | parasite growth, CellTiter-Glo | GUTat3.1 bloodstream form | 72 h | – | IC50 | 3.94 ± 2.08 µM
Nc1ncnc2c1ccn2[C@@H]1O[C@H](CO)C[C@H]1O | parasite growth, resazurin | Squib 427 | 72 h | – | EC50 | 0.048 ± 0.009 µM

SMILES | assay | system | setting | scale | endpoint | value
O=C(Nc1ccc2c(c1)CN(c1ccc(Cl)cc1)C2=O)N1CC[C@H](F)C1 | parasite growth, resazurin | Squib 427 | 3 d | – | IC50 | > 64 µM
Cc1ccc(/C=N/N=C/c2ccc([N+](=O)[O-])o2)cc1 | parasite growth, CellTiter-Glo | GUTat3.1 bloodstream form | 72 h | – | IC50 | 3.25 ± 1.94 µM
CCOC(=O)C(CC)NC(=O)CN1C(=O)S/C(=C\c2ccc(OC)cc2)C1=O (centres unmarked) | cell viability | GUTat3.1 | 72 h | – | IC50 | > 58 µM
CC(C)Oc1ncnc2c1c(Cl)cn2[C@@H]1O[C@H](CO)[C@@H](O)[C@H]1O | parasite growth, resazurin | Squib 427 | 72 h | – | EC50 | 0.09 ± 0.04 µM
CC(=O)OC[C@H]1O[C@@H]([Se]c2ccc([N+](=O)[O-])cc2[N+](=O)[O-])[C@H](OC(C)=O)[C@@H](OC(C)=O)[C@@H]1OC(C)=O | flow cytometry | bloodstream form, hGrx1-roGFP2 | EC50, 1 h | reference: diamide 500 µM maximum and minimum oxidation | biosensor oxidation | 13%
Cc1ccc(N2Cc3cc(NC(=O)N4CCN(c5ccc(F)cc5)CC4)ccc3C2=O)cc1 | parasite growth, resazurin | Squib 427 | 3 d | – | IC50 | > 64 µM
Nc1ncnc2c1c(Br)cn2[C@@H]1O[C@H](CO)C[C@H]1O | parasite growth, resazurin | Squib 427 | 72 h | – | EC50 | 0.0013 ± 0.0003 µM
CCOC(=O)CNC(=O)CN1C(=O)S/C(=C\c2ccc(OC)c(O)c2)C1=O | cell viability | GUTat3.1 | 72 h | – | IC50 | > 64 µM
CC(=O)OC[C@H]1O[C@@H]([Se][Se][C@@H]2O[C@H](COC(C)=O)[C@H](OC(C)=O)[C@H](OC(C)=O)[C@H]2OC(C)=O)[C@H](OC(C)=O)[C@@H](OC(C)=O)[C@H]1OC(C)=O | – | bloodstream form | EC50, 4 h | reference: DMSO | glucose consumption | < 30%
C#Cc1cn([C@@H]2O[C@H](CO)C[C@H]2O)c2ncnc(N)c12 | parasite growth, resazurin | Squib 427 | 72 h | – | EC50 | 0.005 ± 0.002 µM
O=C(Nc1ccc2c(c1)CN(c1ccc(Cl)cc1)C2=O)N1CC[C@H](O)C1 | parasite growth, resazurin | Squib 427 | 3 d | – | IC50 | > 64 µM
O=[N+]([O-])c1ccc(/C=N/N=C/c2ccc(OCc3ccccc3)cc2)o1 | parasite growth, CellTiter-Glo | GUTat3.1 bloodstream form | 72 h | – | IC50 | 0.5 ± 0.35 µM
CCOC(=O)C(NC(=O)CN1C(=O)/C(=C/c2ccc3c(c2)OCO3)SC1=S)C(C)C (centres unmarked) | cell viability | GUTat3.1 | 72 h | – | IC50 | > 69 µM
CC(=O)OC[C@H]1O[C@@H]([Se]Cc2ccccc2)[C@H](OC(C)=O)[C@@H](OC(C)=O)[C@@H]1OC(C)=O | – | bloodstream form | 5 µM, 24 h, 1 % DMSO | – | viability | 94.2 ± 23.5%
O=C(Nc1ccc2c(c1)CN(c1ccc(Cl)cc1)C2=O)N1CCN(c2ccc(F)cc2)CC1 | parasite growth, resazurin | Squib 427 | 3 d | – | IC50 | 3.7 µM
CS[Se][C@@H]1O[C@H](COC(C)=O)[C@@H](OC(C)=O)[C@H](OC(C)=O)[C@H]1OC(C)=O | – | bloodstream form | 5 µM, 24 h, 1 % DMSO | – | viability | 83%
O=[N+]([O-])c1ccc(/C=N/N=C/c2ccc(F)cc2)o1 | parasite growth, CellTiter-Glo | GUTat3.1 bloodstream form | 72 h | – | IC50 | 2.03 ± 0.95 µM
O=C(Nc1ccc2c(c1)CN(c1ccccc1)C2=O)N1CC[C@H](F)C1 | parasite growth, resazurin | Squib 427 | 3 d | – | IC50 | > 64 µM
CC(=O)OC[C@H]1O[C@@H]([Se]c2ccc([N+](=O)[O-])cn2)[C@H](OC(C)=O)[C@@H](OC(C)=O)[C@@H]1OC(C)=O | – | bloodstream form | 5 µM, 24 h, 1 % DMSO | – | viability | 73.6 ± 2.7%
